Measurements of several laboratories.
A part holds a random share of what one study measured.

Set 1 — technique: protein-binding microarray; molecule type: double-stranded DNA, one strand shown; medium: in vitro; concentration: 250 nM; notes: 60-bp whole probe; together with: salmon DNA 0.4 mg/ml; baseline: random background probes; reading: higher = stronger binding; constant ends, left off below: GCCTAGCAC … GTCTTGATTCGCTTGACGCTGCTG
Target: Interferon regulatory factor 5, full length, phosphomimetic (IRF5, Homo sapiens, UniProt Q13568-2, residues 1-514, K96S/S451D/S453D/S456D/S462D)
| Strand | log fluorescence [z-score] |
| --- | --- |
| GACGGTTACCTACTGCTGACGTGCTAG | -0.212 |
| CACGGACTGCTACTGCTGACGTGCTAG | -0.626 |
| GACGGTTACGGGTATCGGGACGTGCTA | 0.599 |
| TCACGTCTCTATCAAAAACTGTGCTAG | 0.62 |
| GGATGTGTCTTAAATAGGGGAGTGCTA | -0.102 |
| TTACATATCGGGTTTCGATTAGTGCTA | 8.02 |

Set 2 — technique: aptamer microarray, sandwich; molecule type: DNA with 2'F-ANA; medium: in vitro; concentration: 200 nM; together with: Cy3 exosite-II aptamer, 400 nM; reading: higher = stronger binding
Target: Prothrombin, mature alpha-thrombin (F2, Homo sapiens, UniProt P00734)
Notes: whole 15-mer aptamer, many near background
| Strand | mean fluorescence intensity [a.u.] |
| --- | --- |
| GGTTGGTGTGGTTGG (2'F-ANA at 1 2 4 5 7 8 12 13 14 15) | 53.5 |
| GGTTGGTGTGGTTGG (2'F-ANA at 1 3 5 10 12) | 46.3 |
| GGTTGGTGTGGTTGG (2'F-ANA at 4 5 6 7 9 10 12 13) | 47.6 |

Set 3 — technique: RNA Bind-n-Seq; molecule type: RNA; medium: in vitro; concentration: 365 nM; baseline: no-protein control; reading: higher = stronger binding
Target: RNA binding protein fox-1 homolog 2, RRM domain, GST-SBP tag (RBFOX2, Homo sapiens, UniProt O43251-10, residues 100-194)
Notes: natural RNA segment, single round, ends assumed
Constant ends, left off below: GGGAGUUCUACAGUCCGACGAUC … UGGAAUUCUCGGGUGCCAA
Target sequence (chain): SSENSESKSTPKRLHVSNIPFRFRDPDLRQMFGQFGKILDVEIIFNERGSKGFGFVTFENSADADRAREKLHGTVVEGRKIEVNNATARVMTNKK
| Strand | RBNS enrichment (R) |
| --- | --- |
| AAAUAUCUUUGUGAAUAUUUUAGUAUCGUCUUUGAUAAUAUUCAACAUUUUCAUGACCUGGUUAUAGCCUUUGCUGGUGUUUUUAAAAUACCUGGACUCAAUGACAAAGA | 0.441 |
| AUUCCGGCUCGGCCCGCUCCUGCACCUCCUUUAUAUAGCUCCCUCACCUGAUAGUAGAAUAUUAGAAUCUUAUUUUUUAAAUGUCUUCAGGGAACUGAGCAAAUGUUUGU | 0.666 |
| AUGUUAGUGAAUUCUGUUUCUUUUCAUUCUCGGAAAUGGCAGGAAGCAGCUCCAGUCUCUGAUUUCCAUGGGUCACGUGCUGGGGAUGUGAUGAAGCCUGCAGUCUGCAC | 0.739 |
| CUGCCUACCCUCGAGUCCCGCAGCCUUAACAGGAUGGGAUCGAGGGUCCCCAUGGGGUGGCUCAGAGAUAGGACCCUGGUUUUAAAUCCCUCCCAGCCUGGUGCUGGUGA | 0.266 |
| UGUGUGUGUCAUACUUCUUUUGGGAGGGGGUUGUUUUCUUCUUUUAUGAAACUCCUACUGGAGCUCAAUUUGUAAUUUAGAAACAUUUAAUUUUGUUAAUCCUGUCUGGG | 0.808 |

Single results of other studies
| Molecule | target | assay | test system | setting | how to read | measurement | result |
| --- | --- | --- | --- | --- | --- | --- | --- |
| PhoQ, residues 284 288 289 292 302 303 AMDMFI | PhoP, residues 12 14 15 18 19 TPWLV (Escherichia coli, UniProt P23836) | Sort-seq, refers to: YFP reporter | E. coli | PhoQ-PhoP variant library, together with: 10 µM Mg2+ | baseline: high Mg2+ state, higher = stronger signaling | fold induction | 0.927 |

Repeated from above (set 3):
| Strand | RBNS enrichment (R) |
| --- | --- |
| CUGCCUACCCUCGAGUCCCGCAGCCUUAACAGGAUGGGAUCGAGGGUCCCCAUGGGGUGGCUCAGAGAUAGGACCCUGGUUUUAAAUCCCUCCCAGCCUGGUGCUGGUGA | 0.266 |
| UGUGUGUGUCAUACUUCUUUUGGGAGGGGGUUGUUUUCUUCUUUUAUGAAACUCCUACUGGAGCUCAAUUUGUAAUUUAGAAACAUUUAAUUUUGUUAAUCCUGUCUGGG | 0.808 |
